{"data": "Assay results of several laboratories", "note": "Lines come from different studies, so protocols differ. ± marks the error that the study gave. The star is where a group is joined.", "sequence of UniProt P19440 (whole entry, looked up)": "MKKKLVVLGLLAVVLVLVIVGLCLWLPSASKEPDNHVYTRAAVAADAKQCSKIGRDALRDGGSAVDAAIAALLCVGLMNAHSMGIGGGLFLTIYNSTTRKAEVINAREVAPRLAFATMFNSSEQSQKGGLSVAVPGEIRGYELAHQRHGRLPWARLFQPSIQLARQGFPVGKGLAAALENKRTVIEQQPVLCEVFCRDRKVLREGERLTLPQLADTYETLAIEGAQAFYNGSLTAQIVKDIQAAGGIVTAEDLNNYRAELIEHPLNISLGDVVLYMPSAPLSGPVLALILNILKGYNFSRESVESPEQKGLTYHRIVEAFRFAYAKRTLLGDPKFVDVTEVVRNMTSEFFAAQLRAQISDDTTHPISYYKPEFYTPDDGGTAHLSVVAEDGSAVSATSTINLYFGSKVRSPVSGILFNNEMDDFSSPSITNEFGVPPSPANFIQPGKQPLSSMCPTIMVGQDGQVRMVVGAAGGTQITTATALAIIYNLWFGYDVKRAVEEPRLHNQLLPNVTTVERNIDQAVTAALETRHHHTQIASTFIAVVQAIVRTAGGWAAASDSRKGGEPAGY", "sequence of UniProt P49327 (whole entry, looked up)": "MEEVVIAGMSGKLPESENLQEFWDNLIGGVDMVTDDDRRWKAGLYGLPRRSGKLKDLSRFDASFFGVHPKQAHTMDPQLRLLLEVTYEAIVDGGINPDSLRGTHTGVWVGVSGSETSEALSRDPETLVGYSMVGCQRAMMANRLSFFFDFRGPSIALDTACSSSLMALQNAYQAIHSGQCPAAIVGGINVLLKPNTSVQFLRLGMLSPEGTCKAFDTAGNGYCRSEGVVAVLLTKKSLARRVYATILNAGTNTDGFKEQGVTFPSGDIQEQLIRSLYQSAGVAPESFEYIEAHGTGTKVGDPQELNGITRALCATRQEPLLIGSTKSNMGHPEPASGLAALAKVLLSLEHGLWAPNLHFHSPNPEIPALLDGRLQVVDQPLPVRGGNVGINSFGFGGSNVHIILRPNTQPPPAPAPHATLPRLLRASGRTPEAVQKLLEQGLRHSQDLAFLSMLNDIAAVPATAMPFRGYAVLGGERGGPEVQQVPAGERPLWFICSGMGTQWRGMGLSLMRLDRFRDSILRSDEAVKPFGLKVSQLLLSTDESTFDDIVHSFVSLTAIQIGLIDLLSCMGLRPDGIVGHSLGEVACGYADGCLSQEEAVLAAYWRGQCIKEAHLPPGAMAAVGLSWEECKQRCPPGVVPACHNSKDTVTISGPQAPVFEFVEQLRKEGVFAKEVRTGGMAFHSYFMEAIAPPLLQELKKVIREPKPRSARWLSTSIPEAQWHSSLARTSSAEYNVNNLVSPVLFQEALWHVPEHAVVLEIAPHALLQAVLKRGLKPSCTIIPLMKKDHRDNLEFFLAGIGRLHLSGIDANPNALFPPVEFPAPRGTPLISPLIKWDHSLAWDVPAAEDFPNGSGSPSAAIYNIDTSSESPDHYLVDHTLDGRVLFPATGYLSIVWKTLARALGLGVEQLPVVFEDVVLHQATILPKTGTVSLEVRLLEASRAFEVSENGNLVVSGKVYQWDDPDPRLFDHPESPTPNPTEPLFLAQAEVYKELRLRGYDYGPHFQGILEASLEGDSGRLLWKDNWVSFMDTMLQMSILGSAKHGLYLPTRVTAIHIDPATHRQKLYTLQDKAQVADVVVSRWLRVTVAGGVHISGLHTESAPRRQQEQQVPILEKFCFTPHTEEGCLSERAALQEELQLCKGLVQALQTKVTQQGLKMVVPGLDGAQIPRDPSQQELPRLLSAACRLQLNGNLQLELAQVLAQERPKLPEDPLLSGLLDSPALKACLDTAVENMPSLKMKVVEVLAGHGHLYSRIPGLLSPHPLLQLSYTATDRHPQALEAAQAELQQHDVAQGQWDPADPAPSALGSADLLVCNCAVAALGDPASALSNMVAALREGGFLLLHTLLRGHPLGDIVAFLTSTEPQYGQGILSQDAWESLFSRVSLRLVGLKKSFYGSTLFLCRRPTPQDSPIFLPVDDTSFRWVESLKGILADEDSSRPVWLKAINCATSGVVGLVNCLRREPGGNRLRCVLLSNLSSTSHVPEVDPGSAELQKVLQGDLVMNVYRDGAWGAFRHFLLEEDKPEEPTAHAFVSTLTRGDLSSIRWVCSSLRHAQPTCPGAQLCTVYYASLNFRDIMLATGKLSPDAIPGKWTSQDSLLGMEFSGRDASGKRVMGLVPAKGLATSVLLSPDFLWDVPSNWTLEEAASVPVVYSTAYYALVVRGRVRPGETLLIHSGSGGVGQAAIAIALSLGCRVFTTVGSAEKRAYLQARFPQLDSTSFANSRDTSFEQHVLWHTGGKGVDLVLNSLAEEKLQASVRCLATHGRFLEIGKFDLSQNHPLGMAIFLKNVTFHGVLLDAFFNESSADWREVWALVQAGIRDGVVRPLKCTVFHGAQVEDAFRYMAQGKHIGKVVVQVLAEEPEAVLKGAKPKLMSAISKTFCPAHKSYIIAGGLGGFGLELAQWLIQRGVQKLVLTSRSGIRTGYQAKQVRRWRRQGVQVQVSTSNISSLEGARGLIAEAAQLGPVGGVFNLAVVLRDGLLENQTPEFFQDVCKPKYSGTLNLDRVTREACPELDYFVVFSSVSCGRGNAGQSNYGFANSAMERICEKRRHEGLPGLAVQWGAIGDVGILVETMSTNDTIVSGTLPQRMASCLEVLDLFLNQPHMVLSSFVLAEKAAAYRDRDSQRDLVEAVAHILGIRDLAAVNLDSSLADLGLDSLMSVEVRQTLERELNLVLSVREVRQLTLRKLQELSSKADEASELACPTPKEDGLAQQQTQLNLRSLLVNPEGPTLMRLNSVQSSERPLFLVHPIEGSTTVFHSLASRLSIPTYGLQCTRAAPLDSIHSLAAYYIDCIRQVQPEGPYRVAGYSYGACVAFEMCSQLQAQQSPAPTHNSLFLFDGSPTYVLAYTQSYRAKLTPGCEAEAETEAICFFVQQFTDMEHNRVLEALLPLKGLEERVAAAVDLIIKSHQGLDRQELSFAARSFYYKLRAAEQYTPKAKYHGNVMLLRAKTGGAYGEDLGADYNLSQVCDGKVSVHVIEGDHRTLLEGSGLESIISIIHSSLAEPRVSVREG", "sequence of UniProt K7WIZ6 (whole entry, looked up)": "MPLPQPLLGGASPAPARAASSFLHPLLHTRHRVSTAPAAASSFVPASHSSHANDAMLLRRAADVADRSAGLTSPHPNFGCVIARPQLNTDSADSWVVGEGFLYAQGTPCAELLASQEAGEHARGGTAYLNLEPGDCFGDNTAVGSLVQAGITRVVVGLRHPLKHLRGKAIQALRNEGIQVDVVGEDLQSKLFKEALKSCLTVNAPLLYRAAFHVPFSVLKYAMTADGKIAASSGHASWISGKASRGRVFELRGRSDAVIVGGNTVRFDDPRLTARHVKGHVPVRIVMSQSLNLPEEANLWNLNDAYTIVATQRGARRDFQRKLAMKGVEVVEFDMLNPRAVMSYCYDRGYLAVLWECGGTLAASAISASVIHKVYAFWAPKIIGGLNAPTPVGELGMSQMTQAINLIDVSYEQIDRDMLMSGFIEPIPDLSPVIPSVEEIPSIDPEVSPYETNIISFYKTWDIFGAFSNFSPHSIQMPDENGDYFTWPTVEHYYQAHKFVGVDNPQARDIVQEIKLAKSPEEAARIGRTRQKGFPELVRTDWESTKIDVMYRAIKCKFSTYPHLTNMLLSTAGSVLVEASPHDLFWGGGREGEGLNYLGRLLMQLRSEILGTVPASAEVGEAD", "sequence of UniProt Q2CEE3 (whole entry, looked up)": "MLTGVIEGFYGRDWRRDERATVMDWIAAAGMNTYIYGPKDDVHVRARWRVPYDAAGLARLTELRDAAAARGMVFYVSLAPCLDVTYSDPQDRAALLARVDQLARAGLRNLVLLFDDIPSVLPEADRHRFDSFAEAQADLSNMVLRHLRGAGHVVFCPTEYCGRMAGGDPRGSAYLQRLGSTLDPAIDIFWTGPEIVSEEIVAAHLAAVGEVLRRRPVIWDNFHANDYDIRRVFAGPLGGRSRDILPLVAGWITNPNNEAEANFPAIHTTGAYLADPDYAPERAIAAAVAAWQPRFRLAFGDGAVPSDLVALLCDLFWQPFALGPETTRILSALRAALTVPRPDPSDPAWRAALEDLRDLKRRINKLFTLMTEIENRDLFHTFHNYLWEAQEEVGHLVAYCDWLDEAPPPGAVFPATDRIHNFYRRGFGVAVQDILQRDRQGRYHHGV", "sequence of UniProt Q97SH8 (whole entry, looked up)": "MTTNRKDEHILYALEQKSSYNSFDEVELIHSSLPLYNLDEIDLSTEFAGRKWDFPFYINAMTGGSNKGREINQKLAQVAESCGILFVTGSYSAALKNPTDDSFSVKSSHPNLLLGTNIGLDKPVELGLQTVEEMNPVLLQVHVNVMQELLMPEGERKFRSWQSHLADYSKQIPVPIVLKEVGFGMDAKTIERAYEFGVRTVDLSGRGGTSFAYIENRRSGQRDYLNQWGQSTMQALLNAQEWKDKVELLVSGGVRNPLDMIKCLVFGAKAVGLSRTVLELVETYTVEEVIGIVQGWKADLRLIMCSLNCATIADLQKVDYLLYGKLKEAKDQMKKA", "sequence of UniProt P55210 (whole entry, looked up)": "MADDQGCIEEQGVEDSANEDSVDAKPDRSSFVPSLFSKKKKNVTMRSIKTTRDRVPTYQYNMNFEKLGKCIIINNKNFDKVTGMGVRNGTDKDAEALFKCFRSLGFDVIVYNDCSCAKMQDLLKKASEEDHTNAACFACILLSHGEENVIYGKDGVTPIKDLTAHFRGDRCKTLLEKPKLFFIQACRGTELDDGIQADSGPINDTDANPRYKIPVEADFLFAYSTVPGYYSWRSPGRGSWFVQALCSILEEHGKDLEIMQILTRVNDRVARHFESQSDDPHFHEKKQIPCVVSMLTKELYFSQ"}
{"Molecule": "CC(=O)N[C@H]1[C@H](Oc2ccc([N+](=O)[O-])cc2)O[C@H](CO)[C@@H](O)[C@@H]1O", "target or system": "Protein O-GlcNAcase (Oceanicola granulosus, UniProt Q2CEE3)", "test": "substrate", "system": "Oceanicola granulosus, 2% DMSO", "conditions": "pH 7.5, 37 °C", "quantity": "Km", "value": "8500 ± 600 µM"}
{"Molecule": "Oc1ccccc1O", "target or system": "polyphenol oxidase (Malus domestica)", "test": "substrate", "conditions": "pH 6.8, 25 °C, enzyme pretreated 65 °C 30 min", "quantity": "Km", "value": "23800 ± 3100 µM"}
{"Molecule": "CCCCCCC(=O)Oc1ccc2c(C)cc(=O)oc2c1", "target or system": "Fatty acid synthase, thioesterase domain (FASN, Homo sapiens, UniProt P49327)", "test": "thioesterase domain hydrolysis, substrate, fluorogenic", "conditions": "recombinant thioesterase domain", "quantity": "Km", "value": "38.5 µM"}
{"Molecule": "OO", "target or system": "ancestral DyP peroxidase R390A", "test": "peroxidase activity, substrate", "conditions": "pH 3.0, 25 °C, together with: ABTS 50 µM", "quantity": "Km", "value": "4180 µM"}
{"Molecule": "C=CC[S@+]([O-])C[C@H](N)C(=O)O", "target or system": "alliinase (Cupriavidus necator)", "test": "substrate", "conditions": "pH 7.0, together with: 20 mM PLP", "quantity": "Km", "value": "830 µM"}
{"Molecule": "N[C@@H](CCC(=O)Nc1ccc([N+](=O)[O-])cc1)C(=O)O", "target or system": "Glutathione hydrolase 1 proenzyme (Homo sapiens, UniProt P19440)", "test": "transpeptidation, substrate, pNA release", "conditions": "pH 7.4, 37 °C, together with: glycylglycine acceptor", "quantity": "Km", "value": "1200 ± 100 µM"}
{"Molecule": "flavin mononucleotide", "target or system": "Isopentenyl-diphosphate delta-isomerase (fni, Streptococcus pneumoniae serotype 4, UniProt Q97SH8)", "test": "substrate", "conditions": "pH 7.0, 37 °C, together with: 150 µM IPP and NADPH", "quantity": "Km", "value": "0.343 ± 0.044 µM"}
{"Molecule": "CCN(CC)CC#CCOC(=O)C(O)(c1ccccc1)C1CCCCC1 (centres unmarked)", "test": "mitochondrial swelling", "system": "BALB/cByJ female mouse liver mitochondria", "conditions": "30 min, together with: succinate + rotenone", "how to read": "reference: CaCl2 maximal swelling", "quantity": "EC20", "value": "303 µM"}
{"Molecule": "Nc1nc(N[C@@H]2O[C@H](COP(=O)(O)O)[C@@H](O)[C@H]2O)c(N)c(=O)[nH]1 (mixture of isomers)", "target or system": "Riboflavin biosynthesis protein PYRR, chloroplastic, COG domain (PYRR, Zea mays, UniProt K7WIZ6)", "test": "substrate, HPLC-UV", "conditions": "pH 8.0, 22 °C, together with: 5 mM MgCl2", "quantity": "Km", "value": "5560 ± 490 µM"}
{"Molecule": "CC(=O)Nc1ccc(O)cc1", "test": "cytochrome c release, ELISA", "system": "BALB/cByJ female mouse liver mitochondria", "conditions": "30 min", "how to read": "reference: alamethicin maximal release", "quantity": "EC20", "value": "> 400 µM"}
{"Molecule": "glycylsarcosine", "target or system": "PepTSt Streptococcus thermophilus", "test": "substrate, proton-driven proteoliposome uptake", "conditions": "pH 6.5", "quantity": "Km", "value": "9300 µM"}
{"Molecule": "Nc1nc2c(ncn2[C@@H]2O[C@H](COP(=O)(O)OP(=O)(O)OP(=O)(O)O)[C@@H](O)[C@H]2O)c(=O)[nH]1", "target or system": "retinal guanylyl cyclase (mouse, native)", "test": "substrate", "system": "ROS fraction from GCAP1,2 knockout retinas", "conditions": "pH 7.2, 30 °C", "quantity": "Km", "value": "1310 ± 170 µM"}
{"Molecule": "Ac-QDEVD-pNA (N-acetyl, C-pNA; pNA = O=[N+]([O-])c1ccc(N*)cc1)", "target or system": "Caspase-7 (CASP7, Homo sapiens, UniProt P55210)", "test": "substrate hydrolysis, substrate, colorimetric", "conditions": "pH 7.5", "quantity": "Km", "value": "51 ± 3 µM"}
{"Molecule": "Cc1cc(=O)oc2cc(NC(=O)[C@H](CCCNC(=N)N)NC(=O)[C@H](CCCNC(=N)N)NC(=O)[C@@H](NC(=O)[C@H](CCCNC(=N)N)NC(=O)OC(C)(C)C)C(C)C)ccc12", "target or system": "Furin (FURIN, Homo sapiens, UniProt P09958)", "test": "substrate, fluorogenic", "conditions": "pH 7.5, 25 °C, together with: Boc-RVRR-AMC", "quantity": "Km", "value": "28 ± 1 µM"}
{"note": "Excerpt of the above:"}
{"Molecule": "glycylsarcosine", "target or system": "PepTSt Streptococcus thermophilus", "test": "substrate, proton-driven proteoliposome uptake", "conditions": "pH 6.5", "quantity": "Km", "value": "9300 µM"}
{"Molecule": "CCCCCCC(=O)Oc1ccc2c(C)cc(=O)oc2c1", "target or system": "Fatty acid synthase, thioesterase domain (FASN, Homo sapiens, UniProt P49327)", "test": "thioesterase domain hydrolysis, substrate, fluorogenic", "conditions": "recombinant thioesterase domain", "quantity": "Km", "value": "38.5 µM"}
